Experimental data gathered from unrelated publications.
Each line is one published result; not all experiments were run side by side. Numbers after ± are the reported error.
UniProt Q6P988, sequence (whole entry, looked up): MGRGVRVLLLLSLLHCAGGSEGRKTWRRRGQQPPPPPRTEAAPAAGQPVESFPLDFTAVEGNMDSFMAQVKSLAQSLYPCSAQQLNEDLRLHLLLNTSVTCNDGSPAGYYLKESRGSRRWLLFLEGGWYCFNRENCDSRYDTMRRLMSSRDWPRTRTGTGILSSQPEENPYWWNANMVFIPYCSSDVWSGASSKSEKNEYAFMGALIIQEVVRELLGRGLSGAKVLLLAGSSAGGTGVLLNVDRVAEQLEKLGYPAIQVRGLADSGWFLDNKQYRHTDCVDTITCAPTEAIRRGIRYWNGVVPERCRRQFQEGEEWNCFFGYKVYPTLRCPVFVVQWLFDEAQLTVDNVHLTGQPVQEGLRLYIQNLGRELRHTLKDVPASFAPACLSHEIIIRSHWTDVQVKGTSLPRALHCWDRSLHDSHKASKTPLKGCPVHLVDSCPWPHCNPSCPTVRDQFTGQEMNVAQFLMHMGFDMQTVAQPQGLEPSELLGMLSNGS
UniProt P97612, sequence (whole entry, looked up): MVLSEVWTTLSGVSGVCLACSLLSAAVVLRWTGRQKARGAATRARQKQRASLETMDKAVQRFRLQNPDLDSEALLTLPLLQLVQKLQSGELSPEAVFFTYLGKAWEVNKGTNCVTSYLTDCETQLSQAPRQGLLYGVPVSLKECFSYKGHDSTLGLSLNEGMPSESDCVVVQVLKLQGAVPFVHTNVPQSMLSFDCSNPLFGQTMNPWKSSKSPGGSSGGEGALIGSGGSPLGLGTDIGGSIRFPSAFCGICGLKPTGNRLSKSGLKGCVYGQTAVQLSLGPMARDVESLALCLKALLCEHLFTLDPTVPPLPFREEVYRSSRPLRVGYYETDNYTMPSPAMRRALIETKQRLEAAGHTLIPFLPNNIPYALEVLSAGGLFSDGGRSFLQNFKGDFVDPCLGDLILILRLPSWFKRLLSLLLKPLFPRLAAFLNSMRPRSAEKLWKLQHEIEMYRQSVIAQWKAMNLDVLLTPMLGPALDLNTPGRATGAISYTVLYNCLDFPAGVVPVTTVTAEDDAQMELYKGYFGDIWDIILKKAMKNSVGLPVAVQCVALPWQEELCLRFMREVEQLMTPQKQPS
UniProt O14733, sequence (whole entry, looked up): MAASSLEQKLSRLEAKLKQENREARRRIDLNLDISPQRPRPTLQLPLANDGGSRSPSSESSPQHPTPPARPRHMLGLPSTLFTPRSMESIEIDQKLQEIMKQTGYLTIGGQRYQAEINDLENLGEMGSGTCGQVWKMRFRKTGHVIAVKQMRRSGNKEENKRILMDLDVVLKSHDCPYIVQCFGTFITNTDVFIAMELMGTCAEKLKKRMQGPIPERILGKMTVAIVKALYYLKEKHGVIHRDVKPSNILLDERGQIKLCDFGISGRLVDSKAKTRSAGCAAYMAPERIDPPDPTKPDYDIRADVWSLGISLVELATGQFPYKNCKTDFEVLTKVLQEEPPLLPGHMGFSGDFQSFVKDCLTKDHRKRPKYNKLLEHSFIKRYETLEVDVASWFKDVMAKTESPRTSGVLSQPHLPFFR
UniProt P06241, sequence (whole entry, looked up): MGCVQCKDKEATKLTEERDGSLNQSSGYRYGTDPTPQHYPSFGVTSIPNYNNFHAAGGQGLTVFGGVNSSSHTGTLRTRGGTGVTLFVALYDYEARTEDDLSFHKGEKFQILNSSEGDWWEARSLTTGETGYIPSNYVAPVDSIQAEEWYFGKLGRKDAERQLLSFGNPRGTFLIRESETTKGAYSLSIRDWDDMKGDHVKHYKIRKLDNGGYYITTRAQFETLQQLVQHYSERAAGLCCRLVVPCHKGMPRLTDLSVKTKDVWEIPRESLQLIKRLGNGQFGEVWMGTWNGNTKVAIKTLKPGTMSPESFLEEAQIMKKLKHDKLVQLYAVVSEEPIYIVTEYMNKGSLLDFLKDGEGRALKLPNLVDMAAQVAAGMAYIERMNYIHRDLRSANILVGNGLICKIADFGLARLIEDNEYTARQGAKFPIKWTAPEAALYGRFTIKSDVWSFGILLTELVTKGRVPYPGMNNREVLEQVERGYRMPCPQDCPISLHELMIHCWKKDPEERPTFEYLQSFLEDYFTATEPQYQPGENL
UniProt Q9ULK4, sequence (whole entry, looked up): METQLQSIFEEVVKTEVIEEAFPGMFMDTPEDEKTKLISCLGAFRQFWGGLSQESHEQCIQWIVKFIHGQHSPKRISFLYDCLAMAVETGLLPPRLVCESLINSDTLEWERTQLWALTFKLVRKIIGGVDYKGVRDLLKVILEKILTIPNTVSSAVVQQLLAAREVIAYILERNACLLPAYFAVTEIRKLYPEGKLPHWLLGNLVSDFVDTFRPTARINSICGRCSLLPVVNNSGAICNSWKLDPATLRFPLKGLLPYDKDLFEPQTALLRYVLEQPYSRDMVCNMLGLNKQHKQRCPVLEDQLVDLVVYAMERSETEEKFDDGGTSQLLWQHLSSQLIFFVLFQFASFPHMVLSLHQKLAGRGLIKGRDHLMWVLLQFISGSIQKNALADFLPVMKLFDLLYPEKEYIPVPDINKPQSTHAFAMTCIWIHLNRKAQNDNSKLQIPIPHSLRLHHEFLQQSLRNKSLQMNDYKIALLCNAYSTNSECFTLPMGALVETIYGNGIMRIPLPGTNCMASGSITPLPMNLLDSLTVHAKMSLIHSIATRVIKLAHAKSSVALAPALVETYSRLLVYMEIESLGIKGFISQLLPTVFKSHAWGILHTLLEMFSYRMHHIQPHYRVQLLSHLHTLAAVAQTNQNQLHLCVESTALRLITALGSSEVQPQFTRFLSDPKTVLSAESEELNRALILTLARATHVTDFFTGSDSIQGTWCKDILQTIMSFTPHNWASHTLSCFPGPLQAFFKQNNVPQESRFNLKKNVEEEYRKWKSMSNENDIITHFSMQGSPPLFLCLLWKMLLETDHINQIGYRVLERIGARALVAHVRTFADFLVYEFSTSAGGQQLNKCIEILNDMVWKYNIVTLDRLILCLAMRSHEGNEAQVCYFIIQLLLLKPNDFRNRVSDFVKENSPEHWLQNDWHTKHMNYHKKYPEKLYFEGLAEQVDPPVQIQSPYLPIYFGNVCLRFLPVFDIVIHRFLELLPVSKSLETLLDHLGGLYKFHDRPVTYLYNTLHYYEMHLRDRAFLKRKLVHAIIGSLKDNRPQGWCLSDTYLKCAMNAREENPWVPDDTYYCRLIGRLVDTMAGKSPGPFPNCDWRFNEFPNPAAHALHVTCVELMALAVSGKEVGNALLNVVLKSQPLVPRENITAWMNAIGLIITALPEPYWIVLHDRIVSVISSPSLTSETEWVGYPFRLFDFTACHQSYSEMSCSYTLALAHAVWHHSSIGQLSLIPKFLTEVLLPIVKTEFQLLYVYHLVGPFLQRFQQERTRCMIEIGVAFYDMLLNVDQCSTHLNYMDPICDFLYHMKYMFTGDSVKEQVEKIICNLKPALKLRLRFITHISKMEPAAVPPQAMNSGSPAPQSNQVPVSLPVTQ
UniProt Q99705, sequence (whole entry, looked up): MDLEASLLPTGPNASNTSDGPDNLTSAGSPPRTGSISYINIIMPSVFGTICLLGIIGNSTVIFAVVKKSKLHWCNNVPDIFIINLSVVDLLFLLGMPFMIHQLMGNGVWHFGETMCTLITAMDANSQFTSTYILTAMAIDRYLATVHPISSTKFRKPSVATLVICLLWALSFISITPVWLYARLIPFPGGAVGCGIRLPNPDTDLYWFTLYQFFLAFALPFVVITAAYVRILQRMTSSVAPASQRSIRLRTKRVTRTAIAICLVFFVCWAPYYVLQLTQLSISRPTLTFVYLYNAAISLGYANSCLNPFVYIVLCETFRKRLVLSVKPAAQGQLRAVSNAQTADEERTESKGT
UniProt P32298, sequence (whole entry, looked up): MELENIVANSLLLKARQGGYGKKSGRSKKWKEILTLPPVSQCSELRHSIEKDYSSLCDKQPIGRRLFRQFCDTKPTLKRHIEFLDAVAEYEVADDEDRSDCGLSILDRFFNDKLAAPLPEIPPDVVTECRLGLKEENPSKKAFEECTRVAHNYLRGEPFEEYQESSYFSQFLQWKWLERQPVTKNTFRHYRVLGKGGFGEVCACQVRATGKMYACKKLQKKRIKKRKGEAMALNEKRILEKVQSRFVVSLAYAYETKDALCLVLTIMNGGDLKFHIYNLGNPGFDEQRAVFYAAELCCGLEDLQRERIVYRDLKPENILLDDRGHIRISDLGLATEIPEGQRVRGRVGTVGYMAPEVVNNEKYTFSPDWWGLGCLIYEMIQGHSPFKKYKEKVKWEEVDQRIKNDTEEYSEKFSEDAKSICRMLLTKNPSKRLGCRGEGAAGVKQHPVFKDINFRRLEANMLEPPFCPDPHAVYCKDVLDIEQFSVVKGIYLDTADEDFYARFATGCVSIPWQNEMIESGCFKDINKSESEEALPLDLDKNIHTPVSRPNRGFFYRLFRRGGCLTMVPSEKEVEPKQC
UniProt Q675A5, sequence (whole entry, looked up): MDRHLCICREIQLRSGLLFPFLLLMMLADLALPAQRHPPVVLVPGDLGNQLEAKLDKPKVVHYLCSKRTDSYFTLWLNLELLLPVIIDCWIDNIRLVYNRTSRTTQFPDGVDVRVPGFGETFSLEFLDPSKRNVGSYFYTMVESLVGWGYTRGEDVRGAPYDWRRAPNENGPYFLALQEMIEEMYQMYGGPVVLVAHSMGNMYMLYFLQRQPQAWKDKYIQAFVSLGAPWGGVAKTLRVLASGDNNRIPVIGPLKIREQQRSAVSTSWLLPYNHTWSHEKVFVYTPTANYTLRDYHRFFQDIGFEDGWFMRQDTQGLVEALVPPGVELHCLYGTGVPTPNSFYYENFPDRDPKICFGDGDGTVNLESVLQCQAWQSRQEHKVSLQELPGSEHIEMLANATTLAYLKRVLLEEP

For CN(C(=O)n1cnc(-c2ccc[n+]([O-])c2)c1)C1CCCCC1, the inhibition was 4% (kainate receptor, rat; binding; 50 µM, added: [3H]kainic acid).
O=C(O)c1cccc(C(N(Cc2ccccc2)C(=O)c2cccs2)P(=O)(O)O)n1 (stereo not shown) gave a dissociation half-life of 13 ± 2.3 min (Metallo-beta-lactamase VIM-2 (VIM-2, Escherichia coli, UniProt Q5U7L7); inhibitor; added: nitrocefin).
For O=C(NCc1ccccc1)[C@@H]1CS[C@H]2CS[C@H](CS)N21, activity read “inactive” (sfhI (Serratia fonticola, UniProt Q9RMI1); activity class; concentration not given).
[2H]c1c([2H])c([C@]2([2H])CCCN2C(=O)C(C)(C)Oc2ccc3cn[nH]c3c2)c([2H])c([2H])c1C([2H])([2H])[2H] has a remaining binding of 95% (Dual specificity mitogen-activated protein kinase kinase 7 (MAP2K7, Homo sapiens, UniProt O14733); KINOMEscan; 1 µM; baseline: DMSO control).
For O=C(c1ccc(Cl)cc1)N1CCN2C(=O)N(OC(=O)N3CCOc4ccccc43)C(=O)C2C1 (stereo not shown), “probe labelling ratio” read 0.51 (Palmitoleoyl-protein carboxylesterase NOTUM (NOTUM, Homo sapiens, UniProt Q6P988); MS-based ABPP; SW-620 conditioned medium; 10 µM, median ratio; baseline: compound over DMSO).
O=C(Nc1cccnn1)N1CCC(=Cc2cccc(Oc3ccc(C(F)(F)F)cn3)c2)CC1 gave an inhibition of 99.7% (Fatty-acid amide hydrolase 1 (Faah, Rattus norvegicus, UniProt P97612); probe labelling, inhibitor, competitive ABPP with azido-FP probe; rat brain membrane fraction; 0.1 µM).
For Nc1ncnc2c1ncn2[C@@H]1O[C@H](COP(=O)(O)OP(=O)(O)OP(=O)(O)O)[C@@H](O)[C@H]1O, the Km was 1300 ± 400 µM (YscN wild type).
CN1CCN(c2cc(-c3ccncc3)c(-c3ccc4ccccc4c3)nn2)CC1 has an inhibition of 38.6% (Melanin-concentrating hormone receptor 1 (MCHR1, Homo sapiens, UniProt Q99705); antagonist, FLIPR; 10 µM).
For C[C@H]1CN(c2n[nH]c3nc(N[C@H]4CC[C@H](NS(=O)(=O)CCC(F)(F)F)CC4)ncc23)CCO1, the relative abundance was 1.05 (Mediator of RNA polymerase II transcription subunit 23 (MED23, Homo sapiens, UniProt Q9ULK4); inhibitor, Kinobeads competition profiling; 0.16 µM; baseline: vehicle).
CN(C(=O)n1cnc(-c2ccc[n+]([O-])c2)c1)C1CCCCC1 gave a fold change of -3.5 (Lysosomal phospholipase A and acyltransferase (Pla2g15, Rattus norvegicus, UniProt Q675A5); enzyme activity, ABPP; rat, brain; oral, 100 mg/kg/day, 28 days; baseline: vehicle).
For COc1ccc(N2C(=O)N(c3c(C)cccc3Cl)Cc3cnc(Nc4ccc(C5CCN(C)CC5)cc4OC)nc32)nc1, the inhibition was 95% (Tyrosine-protein kinase Fyn (FYN, Homo sapiens, UniProt P06241); kinase activity; 0.5 µM).
The inhibition of O=C(Nc1cnccc1Cl)N1CCN(Cc2ccc3c(c2)OC(F)(F)O3)CC1 is reported as 9% (kainate receptor, rat; binding; 10 µM, added: [3H]kainic acid).
The inhibition of COc1cc(Nc2ncc(F)c(Nc3ccc4c(n3)NC(=O)C(C)(C)O4)n2)cc(OC)c1OC is reported as 0% (G protein-coupled receptor kinase 4 (GRK4, Homo sapiens, UniProt P32298); KINOMEscan; 10 µM).

Repeated from above:
The inhibition of COc1cc(Nc2ncc(F)c(Nc3ccc4c(n3)NC(=O)C(C)(C)O4)n2)cc(OC)c1OC is reported as 0% (G protein-coupled receptor kinase 4 (GRK4, Homo sapiens, UniProt P32298); KINOMEscan; 10 µM).
